Earlier results as cited in several papers.
Protocols differ between the studies behind these lines. ± marks the error that the study gave.
Sequence of UniProt Q5U3Y7 (whole entry, looked up): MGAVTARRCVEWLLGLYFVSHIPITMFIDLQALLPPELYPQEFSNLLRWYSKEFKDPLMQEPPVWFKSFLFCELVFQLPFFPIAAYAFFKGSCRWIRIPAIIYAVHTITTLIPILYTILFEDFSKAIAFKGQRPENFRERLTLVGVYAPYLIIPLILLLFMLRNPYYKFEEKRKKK
Sequence of UniProt Q9R0C9 (whole entry, looked up): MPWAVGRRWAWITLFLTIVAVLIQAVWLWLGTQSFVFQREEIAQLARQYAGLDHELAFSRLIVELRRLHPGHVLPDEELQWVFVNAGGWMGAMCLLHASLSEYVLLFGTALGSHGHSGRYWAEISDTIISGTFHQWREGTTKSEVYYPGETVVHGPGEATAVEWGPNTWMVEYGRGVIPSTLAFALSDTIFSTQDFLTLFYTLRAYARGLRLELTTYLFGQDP
Sequence of UniProt P31652 (whole entry, looked up): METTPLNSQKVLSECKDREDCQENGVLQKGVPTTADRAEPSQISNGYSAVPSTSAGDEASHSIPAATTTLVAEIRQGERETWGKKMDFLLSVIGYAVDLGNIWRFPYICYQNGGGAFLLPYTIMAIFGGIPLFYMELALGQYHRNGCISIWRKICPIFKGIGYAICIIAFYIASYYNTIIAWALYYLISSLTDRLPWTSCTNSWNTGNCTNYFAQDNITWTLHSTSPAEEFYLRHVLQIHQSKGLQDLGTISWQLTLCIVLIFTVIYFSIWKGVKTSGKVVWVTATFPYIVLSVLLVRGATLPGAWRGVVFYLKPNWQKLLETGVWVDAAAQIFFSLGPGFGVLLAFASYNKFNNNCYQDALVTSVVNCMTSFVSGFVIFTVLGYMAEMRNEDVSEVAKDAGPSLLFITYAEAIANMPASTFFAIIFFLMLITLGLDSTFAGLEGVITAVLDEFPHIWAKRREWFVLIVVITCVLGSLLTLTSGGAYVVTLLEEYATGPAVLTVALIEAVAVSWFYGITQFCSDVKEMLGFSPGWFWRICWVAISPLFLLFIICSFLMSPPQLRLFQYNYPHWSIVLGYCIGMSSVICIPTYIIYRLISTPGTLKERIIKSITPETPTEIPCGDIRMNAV

With `tetrahydrofolate` the Km was 20 µM (serine hydroxymethyltransferase, human; substrate).
With `C=CCN(CC=C)CCc1c[nH]c2ccc(OC)cc12` the Ki was 301 nM (Sigma non-opioid intracellular receptor 1 (Sigmar1, Rattus norvegicus, UniProt Q9R0C9)).
Under “SOD, peroxidase, catalase activity”, `N#C/N=C1\SCCN1Cc1ccc(Cl)nc1` is recorded as “inhibited” (Eisenia fetida; soil; 1.0 and 3.0 mg/kg).
`GRPQGPPQ` has an inhibition of 97% (Porphyromonas gingivalis; fimbrial binding to PRP1-coated hydroxyapatite, inhibitor; peptide; concentration not given).
The Ki of `C=CCN(CC=C)CCc1c[nH]c2ccccc12` is reported as 356 nM (Sigma intracellular receptor 2 (Tmem97, Rattus norvegicus, UniProt Q5U3Y7); binding, radioligand binding; rat PC-12; with: [3H]DTG).
For `CN1C/C(=C\c2ccc(Cl)cc2Cl)C/C(=C/c2ccc(Cl)cc2Cl)C1`, the Ki was greater than 100000 nM (alpha4beta2 nicotinic acetylcholine receptor; binding; with: [3H]nicotine).
For `CC(C)(C)OC(=O)c1cc2c(cn1)[nH]c1ccccc12`, the efficacy was 96 ± 7% (human GABAA α1β3γ2 receptor; modulator, two-electrode voltage clamp; Xenopus oocytes; saturating, with: GABA EC50; reference: GABA response).
Under “Km or Ki”, `O=c1c2nc(Br)n([C@@H]3O[C@@H]4CO[P@@](O)(=S)O[C@H]4[C@H]3O)c2nc2[nH]c(-c3ccccc3)cn12` is recorded as 4090 nM (PDE5; cyclic nucleotide hydrolysis, substrate or inhibitor, isothermal titration calorimetry).
`N[C@]1(c2ccccc2Cl)CCC[C@H](O)C1=O`: activity “inactive” (opioid receptors; binding, competitive binding screen; concentration not given).
`O=[P@]1(S)OC[C@H]2O[C@@H](n3cnc4cc(Cl)c(Cl)cc43)[C@H](O)[C@@H]2O1` — result for “Km or Ki”: 17700 nM (PDE2A; cyclic nucleotide hydrolysis, substrate or inhibitor, isothermal titration calorimetry).
`COC(=O)[C@H]1[C@@H](OC(=O)c2ccccc2)C[C@@H]2CC[C@H]1N2C` — result for EC50: “inactive” (Sodium-dependent serotonin transporter (Slc6a4, Rattus norvegicus, UniProt P31652); transporter-mediated release, substrate; rat brain synaptosomes).
`COC1C2OP(O)(=S)OCC2OC1n1c(Sc2ccc(Cl)cc2)nc2c(N)ncnc21` (stereo not shown): “Km or Ki” 400 nM (PDE5; cyclic nucleotide hydrolysis, substrate or inhibitor, isothermal titration calorimetry).
`C[C@]12CCC(=O)CC1=CC[C@@H]1[C@@H]2CC[C@]2(C)C(=O)CC[C@@H]12` has a Km of 23 ± 1 µM (ketosteroid isomerase Y55F; substrate; pH 7.0, 3.3 % methanol).

Excerpt of the above:
`O=[P@]1(S)OC[C@H]2O[C@@H](n3cnc4cc(Cl)c(Cl)cc43)[C@H](O)[C@@H]2O1` — result for “Km or Ki”: 17700 nM (PDE2A; cyclic nucleotide hydrolysis, substrate or inhibitor, isothermal titration calorimetry).
`COC(=O)[C@H]1[C@@H](OC(=O)c2ccccc2)C[C@@H]2CC[C@H]1N2C` — result for EC50: “inactive” (Sodium-dependent serotonin transporter (Slc6a4, Rattus norvegicus, UniProt P31652); transporter-mediated release, substrate; rat brain synaptosomes).
